Results gathered from unrelated publications.
Protocols differ between the studies behind these lines. Numbers after ± are the reported error.
Organism: human cytomegalovirus

O=C1/C(=N\NC(=S)NN=Cc2cccs2)c2ccccc2N1Cc1ccccc1
EC50 (viral cytopathogenicity; HEL, Davis): 11320 ± 80 nM

COc1ccc(-c2coc3cc(O)cc(O)c3c2=O)cc1
IC50 (viral replication, titre reduction; HEL fibroblasts, Towne): 15 µM

CC(=O)Oc1ccc(Cn2ccc(=O)[nH]c2=O)cc1C1OC(c2ccc(Cl)cc2)=NN1C(C)=O (stereo not shown)
EC50 (cytopathic effect; HEL fibroblasts, Davis): > 20000 nM

O=C(NCc1ccc(F)c(F)c1)c1cn(Cc2ccc(F)cc2)cc(O)c1=O
EC50 (viral replication, GFP reporter virus; HFF; 168 h): 740 ± 40 nM

CC(=O)Oc1ccc(Cn2cc(C)c(=O)[nH]c2=O)cc1C1OC(c2ccc(Cl)cc2)=NN1C(C)=O (stereo not shown)
EC50 (cytopathic effect; HEL fibroblasts, Davis): > 20000 nM

O=C(NCc1cccc(Cl)c1F)c1cn(Cc2ccc(F)cc2)cc(O)c1=O
EC50 (viral replication, GFP reporter virus; HFF; 168 h): 480 ± 30 nM

CCCCCCCCCCCCCC(=O)N[C@@H](CCCNC(=N)N)C(=O)N[C@@H](CO)C(=O)N[C@@H](CCSC)C(=O)N[C@@H](CCCCN)C(=O)N[C@@H](CCCNC(=N)N)C(=O)N[C@@H](CO)C(=O)N[C@@H](CC(C)C)C(=O)N[C@H](C(=O)N1CCC[C@H]1C(=O)N[C@@H](CCCNC(=N)N)C(=O)N[C@@H](Cc1c[nH]c2ccccc12)C(=O)N[C@H](C(=O)NCC(=O)N[C@@H](CC(N)=O)C(=O)N[C@@H](CCCCN)C(=O)N[C@@H](CCCNC(=N)N)C(=O)O)[C@@H](C)CC)[C@@H](C)CC
microtubule nucleation at Golgi (HCMV-infected NHDF; concentration not given; reference: DMSO): decreased

CC(=O)Oc1ccc(Cn2cc(F)c(=O)[nH]c2=O)cc1C1OC(c2cccc(Cl)c2)=NN1C(C)=O (stereo not shown)
EC50 (cytopathic effect; HEL fibroblasts, Davis): > 20000 nM

O=P(O)(O)Oc1c2c(c(OP(=O)(O)O)c3c1C1CC3c3cc4c(cc31)C1CC4c3ccccc31)C1CC2c2cc3c(cc21)C1CC3c2ccccc21
virions with membrane distortion (cryo-TEM; 50 µM, 30 min, 37 °C): 84.6%

Cc1ccc(CNC(=O)c2cn(Cc3ccc(F)cc3)cc(O)c2=O)c(F)c1
EC50 (viral replication, GFP reporter virus; HFF; 168 h): 980 ± 30 nM

CC(=O)Oc1ccc(Cn2cc(C)c(=O)[nH]c2=O)cc1C1OC(c2cccc(Cl)c2)=NN1C(C)=O (stereo not shown)
EC50 (cytopathic effect; HEL fibroblasts, AD-169): > 20000 nM

O=C(NCc1ccc(Cl)cc1Cl)c1cn(Cc2ccc(F)cc2)cc(O)c1=O
EC50 (viral replication, GFP reporter virus; HFF; 168 h): 410 ± 20 nM

CCCCCCC(CC=CCCCCCCCC(=O)OCCOCn1cnc2c(=O)[nH]c(N)nc21)OC(=O)CCCCC1SCC2NC(=O)NC21 (stereo not shown)
EC90 (viral replication, plaque reduction; HFF, AD169): 100 µM

For quick reference, copied from above:
CC(=O)Oc1ccc(Cn2cc(F)c(=O)[nH]c2=O)cc1C1OC(c2cccc(Cl)c2)=NN1C(C)=O (stereo not shown)
EC50 (cytopathic effect; HEL fibroblasts, Davis): > 20000 nM
